Published values of several laboratories.
Every numbered part comes from another study and shows a few of its results, in no order. Positions count from the first letter of the parent shown.

Sample 1
Target: Sal-like protein 4, full length isoform A (SALL4, Homo sapiens, UniProt Q9UJQ4, residues 1-1053)
Chain of UniProt Q9UJQ4 (whole entry, looked up): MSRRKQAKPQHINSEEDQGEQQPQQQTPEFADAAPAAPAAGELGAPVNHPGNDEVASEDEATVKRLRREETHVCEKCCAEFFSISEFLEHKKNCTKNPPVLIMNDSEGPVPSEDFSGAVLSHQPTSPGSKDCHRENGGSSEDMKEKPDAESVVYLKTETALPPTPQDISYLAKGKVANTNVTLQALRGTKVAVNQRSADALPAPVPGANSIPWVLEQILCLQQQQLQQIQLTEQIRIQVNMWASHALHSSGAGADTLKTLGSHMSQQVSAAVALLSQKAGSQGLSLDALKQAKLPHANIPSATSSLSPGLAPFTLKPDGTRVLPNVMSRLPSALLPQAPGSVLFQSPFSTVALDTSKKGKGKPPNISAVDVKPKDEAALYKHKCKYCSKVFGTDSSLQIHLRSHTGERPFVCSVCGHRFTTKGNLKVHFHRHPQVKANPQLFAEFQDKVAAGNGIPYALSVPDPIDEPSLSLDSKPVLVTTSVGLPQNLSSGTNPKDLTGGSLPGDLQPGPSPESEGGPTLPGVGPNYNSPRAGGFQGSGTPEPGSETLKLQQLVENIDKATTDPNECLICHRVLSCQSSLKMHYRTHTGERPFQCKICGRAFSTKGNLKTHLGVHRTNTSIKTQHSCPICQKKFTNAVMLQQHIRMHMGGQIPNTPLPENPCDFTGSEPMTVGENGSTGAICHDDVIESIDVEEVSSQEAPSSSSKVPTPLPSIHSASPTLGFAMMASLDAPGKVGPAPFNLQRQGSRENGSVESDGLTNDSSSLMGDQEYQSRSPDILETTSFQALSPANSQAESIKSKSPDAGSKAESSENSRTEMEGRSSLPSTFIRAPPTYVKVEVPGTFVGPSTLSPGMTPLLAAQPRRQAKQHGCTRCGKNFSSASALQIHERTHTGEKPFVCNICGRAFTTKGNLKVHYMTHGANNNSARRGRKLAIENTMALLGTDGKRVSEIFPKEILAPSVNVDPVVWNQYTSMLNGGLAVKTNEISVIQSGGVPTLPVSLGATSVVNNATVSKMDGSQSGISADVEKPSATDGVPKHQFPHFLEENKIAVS
Method: universal PBM
Form: double-stranded DNA, one strand shown
Sample: in vitro
Concentration: 600 nM
Notes: 8-mer, flanks averaged, mean of replicates
Direction: higher = stronger binding
With `ACGCAAGC` the E-score was -0.0375.
With `ATTCACGA` the E-score was 0.245.
The E-score of `ATTGGTAA` is reported as 0.172.
With `CATACTGC` the E-score was -0.0626.
`AGCCGTGA` gave an E-score of -0.0494.
The E-score of `ACTATCAC` is reported as 0.147.
`ATTTTCGG` gave an E-score of 0.194.
`ACTTAAAT` has an E-score of 0.274.
With `GGAGAAGA` the E-score was -0.0121.
`ACGAAACC` gave an E-score of -0.026.
The E-score of `AGGAGACA` is reported as 0.119.
For `CCCGCAAA`, the E-score was 0.0227.
With `AAGGTCCA` the E-score was -0.0661.
`ACGATAGT` has an E-score of 0.179.
The E-score of `GGACTATA` is reported as 0.177.
With `CTGTCCCC` the E-score was -0.364.
`CTCGGCAC` has an E-score of -0.33.
`CCAAGAGG` gave an E-score of -0.226.
`ATCCGATC` has an E-score of 0.0262.
For `ACATCGCC`, the E-score was -0.0875.

Sample 2
Target: RNA binding protein fox-1 homolog 2, RRM domain, GST-SBP tag (RBFOX2, Homo sapiens, UniProt O43251-10, residues 100-194)
Method: RNA Bind-n-Seq
Form: RNA
Sample: in vitro
Concentration: 365 nM
Notes: natural RNA segment, single round, ends assumed
Reference: no-protein control
Direction: higher = stronger binding
Target sequence (chain): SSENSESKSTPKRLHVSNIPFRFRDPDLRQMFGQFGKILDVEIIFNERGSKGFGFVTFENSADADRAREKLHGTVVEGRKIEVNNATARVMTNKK
`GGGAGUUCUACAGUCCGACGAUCUUCUGCUUAUGGUCGUGAGCUGAUCACGCAGUUUGCUAGAUGAUUUGACACUGGUGGUGAGUUCUUUUGAGGCGUGAGAUUUCUAUGUGAAACUGAUAGGUCUUGAUCUGUGGAAUUCUCGGGUGCCAA`: “RBNS enrichment (R)” 0.483.
`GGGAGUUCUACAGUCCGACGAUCCUUGCCUCAUAAUAGAUGUGGUGACUCUCCCGGUAGACCCUAGCAAGGGUCCUCCAUGGUGGUGAGGGACUCAGGAGAAUUGUAGGGAUUGGGGGACCCUGCCUGCCUGGUGGAAUUCUCGGGUGCCAA`: “RBNS enrichment (R)” 1.4.
For `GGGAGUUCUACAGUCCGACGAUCUUCCAAGGCUGGAAAGACACAGUCAUGGAUGUACUGUCUGAGCAUAGAGAACCCGGGCUUGAGUGAGAAGAGCUUGCACAGCCAGUGAGACACAUUGCCUUCUGCAGCUGUGGAAUUCUCGGGUGCCAA`, “RBNS enrichment (R)” read 0.233.
For `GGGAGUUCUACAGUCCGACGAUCAUAGAAAAAGAAAUGGCCUCAGUUUGAUCUCGUUCAGAAUGACCCAGAUUGUUUCUGCUUUGGGUGCAGCUGUUUAGUUCAGAGUUAUAUUACAGAGAAUUAUUUUCUGAUGGAAUUCUCGGGUGCCAA`, “RBNS enrichment (R)” read 0.894.
`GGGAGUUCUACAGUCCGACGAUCUUCUGAGAUAUUUACAGUAUUAUUAAAAAAUGAAAAAGGUUGUACUGUUUUGCAUAAUGAACAUUUUUAUUGGGCAUUCAAAGGGUGCAAGAUUGUCUGCUUACUCAUUUUGGAAUUCUCGGGUGCCAA`: “RBNS enrichment (R)” 0.914.
Under “RBNS enrichment (R)”, `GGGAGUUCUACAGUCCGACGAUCUUUCCUUCUGACUCUGUUUGGAUUGAGGGGAAGUCCGUCUUGCUGAUGAUGGUGACCGUGAAAGUGAAAUGGAAGGGAUGAGUGAAGAGGUUUUGGUUUGUUUGUUUGUUUGGAAUUCUCGGGUGCCAA` is recorded as 3.63.
`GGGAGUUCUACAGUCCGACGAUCAUGGUCAAGCUUGUAAAUAACCUUUUUUACAUUUUAAUCUUUUCCAUUAAUUAAGAGGUUGAAAAGAAGUACAGUGUAAGAAAACCCAGCAUUUUAAUUAUUUGCAAAUUUGGAAUUCUCGGGUGCCAA` — result for “RBNS enrichment (R)”: 0.525.
Under “RBNS enrichment (R)”, `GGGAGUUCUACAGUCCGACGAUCACUCUCAGGUAUAGAAGCCCAGGAUGUCUAAUACCCUGUCCCAGUGCCCGAGAGCUGCCUGGUGUCAGGUAGAGAGGACACUGUACCUGGGUGAAUGAUCAGACCCUGGUUGGAAUUCUCGGGUGCCAA` is recorded as 0.621.
`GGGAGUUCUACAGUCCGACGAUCUGGAAUGAUCCGAACUGGACUCACAUCCUGUAUGGUGGAUGGACUGUAUAUUGAGGGUUCCAUUCUUCGCGCAGUUUAGACAUCUCUGUUUUGAUUCUUUGUUGUUGUUUUGGAAUUCUCGGGUGCCAA`: “RBNS enrichment (R)” 0.642.
For `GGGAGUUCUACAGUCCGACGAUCGCGUAACUAUUUUUGACCUAGUCAGUUUUUAAACAAUGUGCAUUUGAAGGAGUUAAUUAAAAGAGAGCCAAUAAAAUGAUUUUACUCAUUCAGUAUCUGAGUACUGGAAGUGGAAUUCUCGGGUGCCAA`, “RBNS enrichment (R)” read 0.601.
For `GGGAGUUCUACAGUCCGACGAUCAAUGGAUGGUGGAAGGGUGGCGAAUGUUCAAAUUCAUAUGUGUGGUAGUGAUUCUUGGAAAGAAUUUGAGGUCCCCAAAGGUGUAUUUUUGGGCAAAUGAAACCAUAAACUGGAAUUCUCGGGUGCCAA`, “RBNS enrichment (R)” read 1.43.
`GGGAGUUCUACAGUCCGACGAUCCUAAGGCAGCCUUCAGUCCCUAUCAGCGCCUCCUUUACUUCCCAGAGAACUUCACAGAGACUCUGUCCUUCCAUGCAAAGGCUUCCUGAAAUAGGGAGACUGACUGAGUAUGGAAUUCUCGGGUGCCAA` — result for “RBNS enrichment (R)”: 0.272.

Sample 3
Target: FOSL1, bZIP domain (human)
Method: DHFR protein complementation
Sample: yeast
Notes: single substitutions, most at no-binding floor
Reference: wild-type JUN-FOS pair
Direction: higher = stronger binding
Starting sequence: JUN, bZIP domain (human); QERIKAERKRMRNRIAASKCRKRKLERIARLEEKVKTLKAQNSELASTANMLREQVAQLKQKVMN; partner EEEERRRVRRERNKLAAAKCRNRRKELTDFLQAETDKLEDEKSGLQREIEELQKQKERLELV
`E54P` has a binding fitness of -1.3 natural log.
`I28C` has a binding fitness of -0.794 natural log.
For `Q41T`, the binding fitness was -0.517 natural log.
`L52N` gave a binding fitness of -1.02 natural log.
With `Q58H` the binding fitness was -0.451 natural log.
With `L38Q` the binding fitness was -1.15 natural log.
For `V35H`, the binding fitness was -1.1 natural log.
For `V56Q`, the binding fitness was -1.33 natural log.
The binding fitness of `R30G` is reported as -0.314 natural log.
For `L59C`, the binding fitness was -1.27 natural log.
`T48W` has a binding fitness of -0.673 natural log.
`L31C` gave a binding fitness of -1.07 natural log.
With `A40N` the binding fitness was -0.534 natural log.
`A40D` gave a binding fitness of -0.493 natural log.
For `A49F`, the binding fitness was -1.38 natural log.
`R53H` gave a binding fitness of -1.14 natural log.
`S43V` has a binding fitness of -0.528 natural log.
For `E33R`, the binding fitness was -0.586 natural log.
With `S47R` the binding fitness was -0.252 natural log.
With `L59H` the binding fitness was -1.37 natural log.
The binding fitness of `E44F` is reported as -0.782 natural log.
`A57L` gave a binding fitness of -0.715 natural log.
`M51L` has a binding fitness of -0.292 natural log.
For `R53Y`, the binding fitness was -1.25 natural log.
The binding fitness of `E44M` is reported as -0.427 natural log.

Sample 4
Target: RING finger protein unkempt homolog, zinc fingers 1-6, GST-SBP tag (UNK, Homo sapiens, UniProt Q9C0B0, residues 30-357)
Chain of UniProt Q9C0B0 (30-357, looked up): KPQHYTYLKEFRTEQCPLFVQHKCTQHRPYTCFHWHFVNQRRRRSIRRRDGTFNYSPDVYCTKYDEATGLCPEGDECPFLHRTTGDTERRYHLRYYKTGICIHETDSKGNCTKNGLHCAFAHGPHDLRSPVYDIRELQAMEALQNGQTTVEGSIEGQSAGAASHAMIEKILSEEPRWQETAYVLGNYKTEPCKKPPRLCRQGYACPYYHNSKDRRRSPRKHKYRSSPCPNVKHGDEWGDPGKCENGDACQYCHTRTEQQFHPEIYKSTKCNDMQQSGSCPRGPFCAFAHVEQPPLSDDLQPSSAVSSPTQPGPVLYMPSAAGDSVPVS
Method: RNA Bind-n-Seq
Form: RNA
Sample: in vitro
Concentration: not given
Notes: RNA with constant flanks, human-mouse chimeric sites, ends assumed
Reference: input RNA pool
Direction: higher = stronger binding
For `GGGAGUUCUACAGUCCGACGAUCAGAAUCUGUGACUGGCUUUACUUAAUUGGUCAUUGAUAGCUUAACAAACAUGGAGAUAAGAUUAGAAAUCUUGACAUCAACAGGUAUUAAGCAGAAAAAACCAUGGCCACGUGUCUCCUGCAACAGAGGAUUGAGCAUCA`, the bound/input enrichment was 0.125 ratio.
`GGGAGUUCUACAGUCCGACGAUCCCCCAAUACCAUUUGCAGGUCUGGAACUGCACUCUCUUUUUUAAAAAAUAUGCAUAUAUUUUAGGGCUGUAGACUUAUUUUCCUGGUUUUGUUUUUCAUUGCUGACUUUUGAGCACAGAACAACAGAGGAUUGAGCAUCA` gave a bound/input enrichment of 1.12 ratio.
`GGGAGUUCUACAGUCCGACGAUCACCUCCCCCUCCCGCCUGCUUUUUGAACCGCUUUUUGGAAAGUUUUUGGCGUUUCUUUUUUUUAGAAAUACAAAGUGAUUACAGUUUCCCCCGCAAGGGUCUAUCGAAGGGCUUGACGGACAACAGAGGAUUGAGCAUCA` has a bound/input enrichment of 0.562 ratio.
For `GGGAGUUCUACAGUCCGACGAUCGGUGGGGGGUUGUCAUUCGUUUGAGCUGCUGAUUUUCAUGAGUCGCCUUCAAAACUCUCGUGUAGGGUUGACAAUGUGGGGGGGUGGGGGAUCCAGCUUAUUCUUUUUCCCCAGCCCCCACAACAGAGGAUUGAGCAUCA`, the bound/input enrichment was 0.749 ratio.
With `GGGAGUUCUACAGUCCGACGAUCCUCAUGGCUGCAGAAACAGGAAGUGGCAAAACUGGUGCAUUUAGUAUUCCCGUUAUCCAGAUAGUGUAUGAAACUCUGAAAGACCAACAGGAAGGAAAGAAAGGGAAAACAACUAUUAAACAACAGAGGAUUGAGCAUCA` the bound/input enrichment was 0.911 ratio.
`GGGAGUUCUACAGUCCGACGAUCCUGGCACUCUAUCAGAUAUAUUAAUUUUUUAAUGUAGAUGUAAUUUUAAAAAUGAAUGGCUACUUUACGUGAUAGAUUAGGGUUUUACUAUAUAUGUGUGUGUAUAUAUAUAUAUAUAUACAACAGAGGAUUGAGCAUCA` gave a bound/input enrichment of 11.6 ratio.
For `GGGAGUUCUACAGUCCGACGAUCGAAUCCUACUCAGGCGGAUUUUGCAACACCAAGCUCACAGCAGCAGCAUCUUAGUCACAGUAGGGUAGCUUUAGGGCUCUGUGGCCAUGGUUUUACUCACAUGCAGGUUUGGAAAAUGUACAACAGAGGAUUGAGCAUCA`, the bound/input enrichment was 0.412 ratio.
`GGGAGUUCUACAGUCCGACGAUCGAGCGUCUUGCCCGCACUGGGAUCAUCGUGACCACUAGUGAGGCUGUCCUCCUACAGCUGGUAGCUGAUAAGGACCACCCGAAGUUCAAGGAAAUUCAGAACCUAAUUAAGGCGAGUGCCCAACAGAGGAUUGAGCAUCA` gave a bound/input enrichment of 0.117 ratio.
For `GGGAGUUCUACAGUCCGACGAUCCAGGGCAUCAUCUCUCGUGCUGUUAGACACCUGUUCAAGAGUAUUGAUGAGAAAAAGCACAUAGCAAUUAAAAAUGGGCUGCCCCCUCCUGAAUUCAAAGUGAAUGCCCAGUUCCUAGAGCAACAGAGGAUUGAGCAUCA`, the bound/input enrichment was 0.788 ratio.
`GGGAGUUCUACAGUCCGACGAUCCAGCCUCAGAGCCCUGACUUCCUGGACAUUACCAACCCUAAAGCGGUAUUAGAAAAUGCAUUGAGAAACUUCGCCUGUCUGACGACUGGAGAUGUGAUUGCUAUCAACUACAAUGAGAAGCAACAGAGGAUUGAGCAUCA` has a bound/input enrichment of 0.509 ratio.
For `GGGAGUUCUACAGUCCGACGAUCGGCCUGGGACCGUCCUGGGCUAGUACAAAUAGCGGCAGUGGAGGCUCGAGAGGAAAGUUUGUUAGUGGAGGCAGUGGUAGAGGCCGUAUGUACGCUCCUUUACACGAAUAGAUGUGUUCUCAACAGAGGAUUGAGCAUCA`, the bound/input enrichment was 0.476 ratio.

Excerpt of the above (sample 3):
`T48W` has a binding fitness of -0.673 natural log.
`A57L` gave a binding fitness of -0.715 natural log.
For `V35H`, the binding fitness was -1.1 natural log.
`L31C` gave a binding fitness of -1.07 natural log.
With `S47R` the binding fitness was -0.252 natural log.
For `Q41T`, the binding fitness was -0.517 natural log.
With `L59H` the binding fitness was -1.37 natural log.
For `R53Y`, the binding fitness was -1.25 natural log.
